Measurements collected from several papers.
Compare with care: the assays were run in different laboratories.
Target: Non-receptor tyrosine-protein kinase TNK1 (TNK1, Homo sapiens, UniProt Q13470)

| Structure (SMILES) | assay | system | conditions | scale | endpoint | value |
| --- | --- | --- | --- | --- | --- | --- |
| Cc1ccc(C(=O)Nc2ccc(CN3CCN(C)CC3)c(C(F)(F)F)c2)cc1C#Cc1cnc2cccnn12 | target engagement, NanoBRET | human cells |  |  | Hill slope | 1.11 |
| COc1cc(Nc2nc(C)cc(-c3cnn4nc(OC)ccc34)n2)cc(C(F)(F)F)c1 | binding, competition with immobilised ligand |  | 1 µM |  | remaining binding | 80% |
| C=CC(=O)N1CCc2ccc(-n3c(=O)ccc4cnc5ccc(-c6cnn(C)c6)cc5c43)cc21 | KINOMEscan |  | 1 µM | reference: DMSO control | remaining binding | 16% |
| COc1c(Cl)cccc1Nc1c(-c2ccncc2C#C[C@@]2(C)CCCN2C(=O)/C=C/CN(C)C)[nH]c2c1C(=O)NCC2 | binding, competition with immobilised ligand |  | 3 µM |  | remaining binding | 94% |
| NC(=O)[C@@H](O)C[C@H]1CCc2sc3ncnc(O[C@H]4CC[C@H](N5CCOCC5)CC4)c3c21 | enzyme activity, inhibitor |  | 10 µM |  | inhibition | 16% |
| COC(=O)[C@@]1(C)C=C(C(=O)Nc2cccc(C(=O)Nc3ccc(Nc4nccc(-c5cccnc5)n4)c(C)c3)c2)C(=O)CC1 | enzyme activity, inhibitor, radiometric |  | 1 µM |  | remaining activity | 38% |
| CNC(=O)C1CCN(c2cc(C)c(F)cc2NC(=O)c2ccc(-c3cc(O)ccc3C)c(C)c2)CC1 | binding, competition with immobilised ligand |  | 1 µM |  | remaining binding | 100% |
| Cc1ccc(-c2c(/C=C(\C#N)C(=O)NC(C)C)n(CCCO)c3ncnc(N)c23)cc1 | cell-free assay, competition with immobilised ligand |  | 1 µM |  | remaining binding | 100% |
| C=C1C[C@]2(C(=O)OC)C=C(C(=O)Nc3cccc(C(=O)Nc4ccc(Nc5nccc(-c6cccnc6)n5)c(C)c4)c3)C(=O)[C@H]1C2 | binding, competition with immobilised ligand |  | 1 µM |  | remaining binding | 100% |
| CNC1C[S+]2CC[S+]3CC[S+](C1)[Ru-4]321([N]=C=S)[n]2c3ccc(OC)cc3c3c4c(c5cc(F)c[n+]1c5c32)C(=O)NC4=O (stereo not drawn) | KinomeScan |  | 0.1 µM | reference: untreated | remaining binding | 100% |
| Nc1ncc2c(n1)-c1c([nH]c3ccc(C4=CCOCC4)cc13)CCC2 | binding, competition with immobilised ligand |  | 1 µM |  | remaining binding | 100% |
| CCN1CCN(Cc2ccc(NC(=O)c3ccc(C)c(NC(=O)c4cncc(-c5cnn(C)c5)c4)c3)cc2C(F)(F)F)CC1 | binding, competition with immobilised ligand |  | 1 µM |  | remaining binding | 49% |

Repeated from above:
| Structure (SMILES) | assay | system | conditions | scale | endpoint | value |
| --- | --- | --- | --- | --- | --- | --- |
| CNC1C[S+]2CC[S+]3CC[S+](C1)[Ru-4]321([N]=C=S)[n]2c3ccc(OC)cc3c3c4c(c5cc(F)c[n+]1c5c32)C(=O)NC4=O (stereo not drawn) | KinomeScan |  | 0.1 µM | reference: untreated | remaining binding | 100% |
